{"data": "Published values of several laboratories", "note": "Each line is one published result; not all experiments were run side by side. Numbers after ± are the reported error.", "sequence of UniProt Q7TMS5 (whole entry, looked up)": "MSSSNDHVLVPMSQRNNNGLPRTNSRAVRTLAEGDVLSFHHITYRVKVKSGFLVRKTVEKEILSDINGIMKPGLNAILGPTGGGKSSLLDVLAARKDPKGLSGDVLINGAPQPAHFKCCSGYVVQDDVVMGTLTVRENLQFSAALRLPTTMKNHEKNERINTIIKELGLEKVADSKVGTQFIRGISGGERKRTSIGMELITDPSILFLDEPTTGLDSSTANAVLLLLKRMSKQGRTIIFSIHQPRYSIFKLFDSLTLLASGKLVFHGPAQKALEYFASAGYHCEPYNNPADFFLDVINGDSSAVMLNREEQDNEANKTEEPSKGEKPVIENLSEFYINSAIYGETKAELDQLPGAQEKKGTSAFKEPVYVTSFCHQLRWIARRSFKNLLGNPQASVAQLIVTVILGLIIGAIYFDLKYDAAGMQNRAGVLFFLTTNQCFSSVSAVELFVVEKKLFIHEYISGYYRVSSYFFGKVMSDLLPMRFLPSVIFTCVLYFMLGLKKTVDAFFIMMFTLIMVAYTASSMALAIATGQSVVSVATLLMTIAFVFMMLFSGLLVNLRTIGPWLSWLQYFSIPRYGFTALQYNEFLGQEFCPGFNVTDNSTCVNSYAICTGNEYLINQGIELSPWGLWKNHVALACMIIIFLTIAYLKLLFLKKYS", "sequence of UniProt P20813 (whole entry, looked up)": "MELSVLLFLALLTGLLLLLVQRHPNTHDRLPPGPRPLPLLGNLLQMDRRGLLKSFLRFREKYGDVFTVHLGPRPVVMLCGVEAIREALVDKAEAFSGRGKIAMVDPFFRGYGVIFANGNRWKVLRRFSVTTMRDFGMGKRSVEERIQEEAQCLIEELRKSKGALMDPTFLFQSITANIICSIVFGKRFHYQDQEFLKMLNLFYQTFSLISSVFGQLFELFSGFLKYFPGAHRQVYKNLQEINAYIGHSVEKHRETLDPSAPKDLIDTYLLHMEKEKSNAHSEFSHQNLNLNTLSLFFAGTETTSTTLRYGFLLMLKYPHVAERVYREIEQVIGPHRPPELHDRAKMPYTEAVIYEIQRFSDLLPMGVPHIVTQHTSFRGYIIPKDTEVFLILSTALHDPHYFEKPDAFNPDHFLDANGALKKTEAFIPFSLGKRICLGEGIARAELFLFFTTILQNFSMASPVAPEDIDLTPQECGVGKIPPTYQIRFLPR", "sequence of UniProt O75469 (whole entry, looked up)": "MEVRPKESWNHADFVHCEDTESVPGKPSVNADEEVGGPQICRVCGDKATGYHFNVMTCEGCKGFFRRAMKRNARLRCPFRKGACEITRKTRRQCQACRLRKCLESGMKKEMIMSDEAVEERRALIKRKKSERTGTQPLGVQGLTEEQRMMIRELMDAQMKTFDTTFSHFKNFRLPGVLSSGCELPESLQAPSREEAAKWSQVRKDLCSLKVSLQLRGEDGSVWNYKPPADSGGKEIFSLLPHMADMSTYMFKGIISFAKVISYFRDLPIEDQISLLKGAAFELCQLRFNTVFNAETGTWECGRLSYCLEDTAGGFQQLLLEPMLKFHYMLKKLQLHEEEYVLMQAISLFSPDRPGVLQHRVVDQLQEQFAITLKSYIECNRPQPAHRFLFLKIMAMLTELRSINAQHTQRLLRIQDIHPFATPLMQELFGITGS", "sequence of UniProt P11509 (whole entry, looked up)": "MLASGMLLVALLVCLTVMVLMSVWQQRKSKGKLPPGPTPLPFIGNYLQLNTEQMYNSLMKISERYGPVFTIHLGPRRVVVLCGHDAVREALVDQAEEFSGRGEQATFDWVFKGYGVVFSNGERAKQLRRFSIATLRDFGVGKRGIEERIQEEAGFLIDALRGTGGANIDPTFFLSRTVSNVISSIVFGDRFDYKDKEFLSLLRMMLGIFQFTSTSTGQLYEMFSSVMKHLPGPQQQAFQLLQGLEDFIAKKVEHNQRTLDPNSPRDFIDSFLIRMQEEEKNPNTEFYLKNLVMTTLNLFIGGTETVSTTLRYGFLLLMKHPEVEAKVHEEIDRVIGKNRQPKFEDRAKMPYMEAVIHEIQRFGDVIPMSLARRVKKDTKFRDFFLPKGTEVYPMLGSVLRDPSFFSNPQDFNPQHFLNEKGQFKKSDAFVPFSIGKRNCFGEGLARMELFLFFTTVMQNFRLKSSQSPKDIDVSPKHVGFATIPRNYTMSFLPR", "sequence of UniProt P08682 (whole entry, looked up)": "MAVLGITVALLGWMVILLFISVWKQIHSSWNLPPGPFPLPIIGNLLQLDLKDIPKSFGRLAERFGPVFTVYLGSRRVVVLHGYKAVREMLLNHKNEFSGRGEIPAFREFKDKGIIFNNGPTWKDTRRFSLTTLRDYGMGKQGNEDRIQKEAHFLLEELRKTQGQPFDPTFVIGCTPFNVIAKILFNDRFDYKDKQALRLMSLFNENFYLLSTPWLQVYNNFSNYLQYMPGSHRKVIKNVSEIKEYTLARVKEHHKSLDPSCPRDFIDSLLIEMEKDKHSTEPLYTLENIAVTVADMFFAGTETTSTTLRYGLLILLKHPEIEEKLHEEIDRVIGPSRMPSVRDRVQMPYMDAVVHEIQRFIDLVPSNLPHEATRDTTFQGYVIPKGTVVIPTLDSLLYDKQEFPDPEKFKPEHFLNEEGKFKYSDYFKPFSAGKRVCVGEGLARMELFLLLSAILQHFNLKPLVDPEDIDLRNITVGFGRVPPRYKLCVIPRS"}
{"Molecule": "Cc1coc2c1CC[C@@H](C)C2", "target": "Cytochrome P450 2A6 (CYP2A6, Homo sapiens, UniProt P11509)", "assay": "inactivator", "conditions": "5 µM, 0 min, pH 7.4, 30 °C, together with: NADPH", "scale": "reference: without NADPH", "quantity": "remaining activity", "result": "107 ± 9%"}
{"Molecule": "c1n[nH]c2c1CCCC2", "target": "CYP2E1 (Oryctolagus cuniculus, UniProt P08682)", "assay": "inhibitor", "conditions": "pH 7.4, 37 °C, catalytic site, together with: 4-nitrophenol", "quantity": "Ki", "result": "1 µM"}
{"Molecule": "O=c1ccc2ccccc2o1", "target": "CYP2A6 human", "assay": "7-hydroxylation, substrate", "system": "human liver microsomes", "conditions": "CYP2A6 added 54 pmol/mg, ratio 0.125", "quantity": "Km", "result": "1.27 ± 0.25 µM"}
{"Molecule": "Cc1ccc(Nc2nccc(N(C)c3ccc4c(C)n(C)nc4c3)n2)cc1S(N)(=O)=O", "target": "Broad substrate specificity ATP-binding cassette transporter ABCG2 (Mus musculus, UniProt Q7TMS5)", "assay": "bidirectional transport", "system": "MDCK-Bcrp1 (murine Bcrp1)", "conditions": "5 µM, 240 min, together with: erlotinib", "quantity": "efflux ratio", "result": 1.7}
{"Molecule": "ivermectin", "target": "P-glycoprotein 11.1 (Toxocara canis, UniProt A0A891XKB7)", "assay": "transport, inhibitor", "system": "LLC-PK1 transfected with P-glycoprotein 11.1", "conditions": "together with: Hoechst 33342", "quantity": "IC50", "result": "322 µM"}
{"Molecule": "CO[C@H]1/C=C/O[C@@]2(C)Oc3c(C)c(O)c4c(O)c(c(/C=N/N5CCN(C)CC5)c(O)c4c3C2=O)NC(=O)/C(C)=C\\C=C\\[C@H](C)[C@H](O)[C@@H](C)[C@@H](O)[C@@H](C)[C@H](OC(C)=O)[C@@H]1C", "target": "NR1I2 (Homo sapiens, UniProt O75469)", "assay": "reporter gene, agonist, luciferase", "system": "HepG2", "conditions": "2.5 µM, 24 h", "quantity": "induction", "result": 2.62}
{"Molecule": "CC1=N[C@]2(C(=O)CO)[C@@H](C[C@H]3[C@@H]4C[C@@H](O)C5=CC(=O)C=C[C@]5(C)[C@H]4[C@@H](O)C[C@@]32C)O1", "target": "Cytochrome P450 2B6 (CYP2B6, Homo sapiens, UniProt P20813)", "system": "pooled human liver microsomes", "conditions": "30 min preincubation, together with: NADPH", "quantity": "IC50", "result": "> 50 µM"}
{"Molecule": "CC(CN(C)C)CN1c2ccccc2CCc2ccccc21 (stereo not drawn)", "target": "alpha-1-acid glycoprotein (human)", "assay": "isothermal titration calorimetry", "conditions": "pH 7.4, 30 °C, heterogeneous AGP preparation", "quantity": "Kd", "result": "404 µM"}
{"Molecule": "CC[C@H](C)[C@H](NC(=O)[C@H](CCC(=O)O)NC(=O)[C@H](CO)NC(=O)[C@@H](NC(=O)[C@@H](N)CO)C(C)C)C(=O)N[C@@H](CCC(N)=O)C(=O)N[C@@H](CC(C)C)C(=O)N[C@@H](CCSC)C(=O)N[C@@H](Cc1cnc[nH]1)C(=O)N[C@@H](CC(N)=O)C(=O)N[C@@H](CC(C)C)C(=O)NCC(=O)N[C@@H](CCCCN)C(=O)N[C@@H](Cc1cnc[nH]1)C(=O)N[C@@H](CC(C)C)C(=O)N[C@@H](CC(N)=O)C(=O)N[C@@H](CO)C(=O)N[C@@H](CCSC)C(=O)N[C@@H](CCC(=O)O)C(=O)N[C@@H](CCCN=C(N)N)C(=O)N[C@H](C(=O)N[C@@H](CCC(=O)O)C(=O)N[C@@H](Cc1c[nH]c2ccccc12)C(=O)N[C@@H](CC(C)C)C(=O)N[C@@H](CCCN=C(N)N)C(=O)N[C@@H](CCCCN)C(=O)N[C@@H](CCCCN)C(=O)N[C@@H](CC(C)C)C(=O)N[C@@H](CCC(N)=O)C(=O)N[C@@H](CC(=O)O)C(=O)N[C@H](C(=O)N[C@@H](Cc1cnc[nH]1)C(=O)N[C@@H](CC(N)=O)C(=O)N[C@@H](Cc1ccccc1)C(=O)O)C(C)C)C(C)C", "target": "Chymotrypsinogen A, activated (chymotrypsin) (Bos taurus, UniProt P00766)", "assay": "substrate, HPLC-UV", "conditions": "5 min, pH 6.5, 37 °C, without trypsin inhibitor", "quantity": "remaining intact compound", "result": "0%"}
{"note": "Repeated from above:"}
{"Molecule": "CC[C@H](C)[C@H](NC(=O)[C@H](CCC(=O)O)NC(=O)[C@H](CO)NC(=O)[C@@H](NC(=O)[C@@H](N)CO)C(C)C)C(=O)N[C@@H](CCC(N)=O)C(=O)N[C@@H](CC(C)C)C(=O)N[C@@H](CCSC)C(=O)N[C@@H](Cc1cnc[nH]1)C(=O)N[C@@H](CC(N)=O)C(=O)N[C@@H](CC(C)C)C(=O)NCC(=O)N[C@@H](CCCCN)C(=O)N[C@@H](Cc1cnc[nH]1)C(=O)N[C@@H](CC(C)C)C(=O)N[C@@H](CC(N)=O)C(=O)N[C@@H](CO)C(=O)N[C@@H](CCSC)C(=O)N[C@@H](CCC(=O)O)C(=O)N[C@@H](CCCN=C(N)N)C(=O)N[C@H](C(=O)N[C@@H](CCC(=O)O)C(=O)N[C@@H](Cc1c[nH]c2ccccc12)C(=O)N[C@@H](CC(C)C)C(=O)N[C@@H](CCCN=C(N)N)C(=O)N[C@@H](CCCCN)C(=O)N[C@@H](CCCCN)C(=O)N[C@@H](CC(C)C)C(=O)N[C@@H](CCC(N)=O)C(=O)N[C@@H](CC(=O)O)C(=O)N[C@H](C(=O)N[C@@H](Cc1cnc[nH]1)C(=O)N[C@@H](CC(N)=O)C(=O)N[C@@H](Cc1ccccc1)C(=O)O)C(C)C)C(C)C", "target": "Chymotrypsinogen A, activated (chymotrypsin) (Bos taurus, UniProt P00766)", "assay": "substrate, HPLC-UV", "conditions": "5 min, pH 6.5, 37 °C, without trypsin inhibitor", "quantity": "remaining intact compound", "result": "0%"}
